Assay results from different studies.
Numbered parts are unrelated; each lists some results of a single study.

Set 1 — method: RNA Bind-n-Seq; molecule type: RNA; medium: in vitro; tested at: not given; relative to: input RNA pool; direction: higher = stronger binding
Target: RING finger protein unkempt homolog, zinc fingers 1-6, GST-SBP tag (UNK, Homo sapiens, UniProt Q9C0B0, residues 30-357)
Chain of UniProt Q9C0B0 (30-357, looked up): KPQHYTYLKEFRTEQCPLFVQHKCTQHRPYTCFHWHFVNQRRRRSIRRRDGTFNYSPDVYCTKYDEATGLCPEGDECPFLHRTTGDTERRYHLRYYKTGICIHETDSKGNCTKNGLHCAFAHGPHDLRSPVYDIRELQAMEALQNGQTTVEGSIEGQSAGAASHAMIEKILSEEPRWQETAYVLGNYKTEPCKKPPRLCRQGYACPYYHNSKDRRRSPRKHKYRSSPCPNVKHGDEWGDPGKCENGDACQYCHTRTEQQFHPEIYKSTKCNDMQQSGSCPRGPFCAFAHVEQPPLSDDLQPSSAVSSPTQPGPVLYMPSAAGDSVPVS
Notes: RNA with constant flanks, human-mouse chimeric sites, ends assumed
All sequences stand within: GGGAGUUCUACAGUCCGACGAUC … CAACAGAGGAUUGAGCAUCA
`GUUCGGCUCUGGGAUCAUGCCACAAUGACAGAAGUGAAAUCUCUAAAUUUUAAUAUGUCUGUUAGCAGUAUGGAAUAUAUUCCUGAAGGAGAGAUUUUGGUUAUUACUUAUGGACGAUCU` has a bound/input enrichment of 0.862 ratio.
The bound/input enrichment of `GACUUUGGGACUGGUCCUCGCAACGCAGCCUACUAUAGCCCUCAUGGACAUAUAUUAGUGCUGGCUGGAUUUGGAAAUCUUCGAGGACAAAUGGAAGUGUGGGAUGUUAAAAACUACAAG` is reported as 0.336 ratio.
`CUCUUUGAAUCAUUCAAGAGUUUUGAAGGUCUCUUUUAUUUUCUGGGAUCCAUUGUUAACUUUAGUCAGGACCCAGAUGUGCACUUUAAAUAUAUUCAGGCGGCUUGCAAGACUGGGCAA` has a bound/input enrichment of 0.883 ratio.
With `GAACCUGCUCUCUCUGAUGAAGAUGAGGAAGACAAUGAUGAUGUUGAACCCAUUUCUGAAUUUCGAUUUGUGCCUAGUGAUAAGUCAGCAUUGGAGGCGAUGUUCACAGCAAUGUGUGAG` the bound/input enrichment was 0.346 ratio.
With `GUGUCCUGCUUUCAACUUAAAUCACUGAGGCAUCUCUACUGUUCUGUGAGCAUCAGGAUUUUAGUGCUGUGUCACCACAUGAGAGUUCAGAAGCAGCCUUUCUGUGGAGAGUGAGAAUGA` the bound/input enrichment was 0.178 ratio.
`UAAGUUAUUUUGUACAGCUUUGUAAAUUCUUAACAUUUUUAUAUUGCCAUGUUUAUUUUUUUUAGAUGCUUUAUUAAAUUAAGUACAUAGCUAAGGUAAUGAACAUCUUUUUCAGUAAUU` has a bound/input enrichment of 1.43 ratio.
For `CUGAAAAACACAGAUAUCAAAGUUGUUGACUUUGGAAGUGCAACGUAUGAUGAUGAACAUCAUAGUACUUUGGUGUCUACCCGGCACUACAGAGCUCCCGAGGUCAUUUUGGCUUUAGGU`, the bound/input enrichment was 0.514 ratio.
`UCGGAUGCUGUGCUGGGUCACUUUCCGUAUCCAGAUCCUUCACAGUGGACAGAUGAAGAAUUAGGUAUCCCUCCUGAUGACGAGGACUGACACUGUAAACUCUCUGGACGAGUAGGAGCA` gave a bound/input enrichment of 0.647 ratio.

Set 2 — cell line: yeast with cyclin D2-Cln2 chimera; effect on: cell growth; action: binder; method: competitive growth deep sequencing; molecule type: peptide; tested at: concentration not given; notes: peptide tiling library; direction: direction not given
`ISRLFPPRTPGWHQLQ`: “growth enrichment score” -0.874.
Under “growth enrichment score”, `EHCRVLFLDHVMYTIH` is recorded as 0.039.
`PPTFLSTGEIHAFLSS`: “growth enrichment score” -0.427.
For `SPREGHMMDALYAQVK`, “growth enrichment score” read 1.36.
`LAKRALKYTD` — result for “growth enrichment score”: 0.156.
For `RRRRLLFWDKETQI`, “growth enrichment score” read -0.525.
For `GPVKLEFDVSDGAT`, “growth enrichment score” read -1.06.
For `YLYLLLTQSLWCRV`, “growth enrichment score” read -0.283.
`NRLLKLFTRCLTPLVP`: “growth enrichment score” -1.54.
Under “growth enrichment score”, `NLEPNAEFDKRTEFIT` is recorded as 0.731.
`VSRNLRSSLKSSLHTL`: “growth enrichment score” -0.194.
`KVRRNLFNQELLSP` — result for “growth enrichment score”: -0.226.

Set 3 — method: aptamer microarray, sandwich; molecule type: DNA with 2'F-ANA; medium: in vitro; tested at: 200 nM; together with: Cy3 exosite-II aptamer, 400 nM; direction: higher = stronger binding; strand: GGTTGGTGTGGTTGG
Target: Prothrombin, mature alpha-thrombin (F2, Homo sapiens, UniProt P00734)
Notes: whole 15-mer aptamer, many near background
`2'F-ANA at 2 5 6 7 10 13 14 15` — result for “mean fluorescence intensity”: 44.9 a.u.
`2'F-ANA at 2 4 5 6 7 9 12 13` — result for “mean fluorescence intensity”: 84.7 a.u.
`2'F-ANA at 1 2 3 5 13 14 15` — result for “mean fluorescence intensity”: 45.2 a.u.
`2'F-ANA at 2 4 5 6 7 10 11 13 14 15`: “mean fluorescence intensity” 51.3 a.u.
`2'F-ANA at 1 2 3 6 10 12 15` — result for “mean fluorescence intensity”: 88.8 a.u.
`2'F-ANA at 2 7 8 11 12 13`: “mean fluorescence intensity” 665 a.u.
Under “mean fluorescence intensity”, `2'F-ANA at 8 13 15` is recorded as 518 a.u.
Under “mean fluorescence intensity”, `2'F-ANA at 1 3 5 9 10 11 13 14 15` is recorded as 68 a.u.
Under “mean fluorescence intensity”, `2'F-ANA at 1 2 3 4 5 6 7 9 10 12` is recorded as 53.4 a.u.
Under “mean fluorescence intensity”, `2'F-ANA at 1 4 5 6 7 8 10 11` is recorded as 83.4 a.u.
`2'F-ANA at 2 4 8 9 11 14 15`: “mean fluorescence intensity” 107 a.u.
Under “mean fluorescence intensity”, `2'F-ANA at 1 2 4 5 7 9 11 14 15` is recorded as 65.9 a.u.
Under “mean fluorescence intensity”, `2'F-ANA at 1 2 5 7 8 9 11 13 15` is recorded as 50.4 a.u.
`2'F-ANA at 2 3 4 6 7 8 9 12 13 14` — result for “mean fluorescence intensity”: 223 a.u.
Under “mean fluorescence intensity”, `2'F-ANA at 2 4 5 9` is recorded as 72.7 a.u.
`2'F-ANA at 1 2 3 4 5 6 7 9` — result for “mean fluorescence intensity”: 63.8 a.u.
`2'F-ANA at 3 5 10 13 15`: “mean fluorescence intensity” 51.2 a.u.
`2'F-ANA at 1 4 7 14` — result for “mean fluorescence intensity”: 67.5 a.u.
`2'F-ANA at 1 3 4 5 9 12 13`: “mean fluorescence intensity” 72.8 a.u.
`2'F-ANA at 3 4 7 8 10 13 14 15` — result for “mean fluorescence intensity”: 254 a.u.
`2'F-ANA at 1 3 6 7 8 9 11 12 13 15` — result for “mean fluorescence intensity”: 357 a.u.
`2'F-ANA at 3 5 6 9 10 11 12 14` — result for “mean fluorescence intensity”: 48.9 a.u.
`2'F-ANA at 1 2 4 5 6 9 11 14 15` — result for “mean fluorescence intensity”: 65.6 a.u.
For `2'F-ANA at 1 3 5 6 7 9 10 11 12 13 14`, “mean fluorescence intensity” read 66.2 a.u.

Set 4 — method: RNA Bind-n-Seq; molecule type: RNA; medium: in vitro; tested at: 1 µM; notes: whole 134-nt RNA, ends assumed; together with: 150 mM KCl; relative to: input library; direction: higher = stronger binding
Target: Ras GTPase-activating protein-binding protein 1, C-terminal RGG region (G3BP1, Homo sapiens, UniProt Q13283)
Chain of UniProt Q13283 (whole entry, looked up): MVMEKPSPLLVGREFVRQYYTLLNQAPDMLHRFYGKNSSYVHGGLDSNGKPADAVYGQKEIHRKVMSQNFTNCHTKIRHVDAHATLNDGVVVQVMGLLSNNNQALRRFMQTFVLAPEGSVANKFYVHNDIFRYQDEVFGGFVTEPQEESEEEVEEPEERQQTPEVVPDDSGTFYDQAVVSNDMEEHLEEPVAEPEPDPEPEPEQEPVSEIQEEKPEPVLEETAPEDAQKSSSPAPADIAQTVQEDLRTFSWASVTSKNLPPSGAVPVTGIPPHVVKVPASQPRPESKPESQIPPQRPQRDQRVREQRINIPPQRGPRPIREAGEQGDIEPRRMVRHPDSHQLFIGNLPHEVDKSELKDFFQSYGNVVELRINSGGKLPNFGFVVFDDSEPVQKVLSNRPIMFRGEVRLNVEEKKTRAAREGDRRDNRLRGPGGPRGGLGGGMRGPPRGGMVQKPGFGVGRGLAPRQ
All sequences stand within: GGGAGUUCUACAGUCCGACGAUC … UGGAAUUCUCGGGUGUCAAGG
`CAAGUCCUGUGCUACACAUCGUAUGUACCGAAUCGGUUUUUGGUUUGGAAAAAGGAAAGUAUUAUGUUACGCCGUUCGGAUCUGCACUUC` has a log2 enrichment of -1.91.
`UCCUGUGCUACACAUCGUAUGUACCGAAUCGGGGCCCCCCGGGCCCCCCGGCCCCCCGGGAAAGUAUUAUGUUACGCCGUUCGGAUCUGC` gave a log2 enrichment of -0.718.
With `CUCAAGUCCUGUGCUACACAUCGUAUGUACCGAAUCGGUUUUUUUGGAGGAGGAAAGUAUUAUGUUACGCCGUUCGGAUCUGCACUUCCA` the log2 enrichment was -1.15.
`GGUAGCAAGAGCUCCAGAGAGAAGUCGAGGAAGAGAGAGACGGGGUCAGAGAGAGCGCGCGGGCGUGCGAGCAGCGAAAGCGACAGGGGC` has a log2 enrichment of -0.417.
With `AGUCCUGUGCUACACAUCGUAUGUACCGAAUCGGGUUUUUGGUUUUUGGUUUUUGGGGAAAGUAUUAUGUUACGCCGUUCGGAUCUGCAC` the log2 enrichment was -1.62.
For `CCUCAAGUCCUGUGCUACACAUCGUAUGUACCGAAUCGGCGGGGCGGGGCGGAAAGUAUUAUGUUACGCCGUUCGGAUCUGCACUUCCAG`, the log2 enrichment was -0.788.
For `CAAGUCCUGUGCUACACAUCGUAUGUACCGAAUCGGAAAAAAAGGAGGAAAAAGGAAAGUAUUAUGUUACGCCGUUCGGAUCUGCACUUC`, the log2 enrichment was -1.8.
`CUCAAGUCCUGUGCUACACAUCGUAUGUACCGAAUCGGGCCGGGCCGGCCGGGGAAAGUAUUAUGUUACGCCGUUCGGAUCUGCACUUCC` has a log2 enrichment of -1.02.
With `GCAGGAAGUAAAAACAAAUGGAAAUGCUUCGGAUAGUGGCAGGGGAGGGGGUUGCUAAGGAAAGGGUGGGAUGGGAGUGGGUAAAGAGUU` the log2 enrichment was 1.95.
